Results from different studies.
Lines come from different studies, so protocols differ.

| Structure (SMILES) | assay | system | setting | measurement | value |
| --- | --- | --- | --- | --- | --- |
| C=CC(=O)N1CC[C@H](n2nc(C#Cc3cc(OC)cc(OC)c3)c3c(N)ncnc32)C1 |  | hyperphosphataemia patients | oral, once daily, grade ≥3, phosphate binder users | patients with ADR | 15% |
| Cc1nc(-c2cnc(NC(C)C)n(C)c2=O)ccc1Oc1ccnc(-c2cnn(C)c2)c1 |  | TGCT patients | oral, dose not given | patients with TEAE | 100% |
| Cc1cc(OCCOCCC(F)(F)P(=O)(O)O)ccc1CCc1cnc2c(N)nc3cc(CCC(=O)O)ccc3c2c1 | measured: chills | adults with advanced solid tumours | dose not given, by treatment group, all grades | patients with non-serious AE | 4.8% |
| CCN(CCO)CCCC(C)Nc1ccnc2cc(Cl)ccc12 (centres unmarked) | measured: Photosensitivity grade 2 | newly diagnosed glioblastoma patients | oral, 400 mg/dose, with radiotherapy and temozolomide | patients with adverse event | 14% |
| CN1CC[C@@H](c2c(O)cc(O)c3c(=O)cc(-c4ccc(C(F)(F)F)cc4Cl)oc23)[C@@H]1CO | measured: Leukopenia | relapsed B-cell malignancies | oral, 200 mg, grade 3-4, intermittent dosing | patients with adverse event | 0% |
| CO[C@H]1C[C@@H]2CC[C@@H](C)[C@@](O)(O2)C(=O)C(=O)N2CCCC[C@H]2C(=O)O[C@H]([C@H](C)C[C@@H]2CC[C@@H](OC(=O)NCCOCCOCCOCCOCCOCCOCCOCCOCCC(=O)N3CCc4cc(Cn5nc(-c6ccc7oc(N)nc7c6)c6c(N)ncnc65)ccc4C3)[C@H](OC)C2)C[C@@H](O)[C@H](C)/C=C(\C)[C@@H](O)[C@@H](OC)C(=O)[C@H](C)C[C@H](C)/C=C/C=C/C=C/1C | measured: grade ≥3 TEAE | patients with advanced solid tumours | intravenous, dose not given, all patients, weekly | patients with AE | 68% |
| COc1nnc2ccc(N3CCC(c4ccc(OCCN5CCN(C)C(=O)[C@H]5C)cc4)CC3)nn12 | measured: diarrhea | patients with solid tumours or lymphoma | oral, dose not given, all grades, treatment-related | patients with adverse event | 29.4% |
| Nc1nc2cc(-c3ccc4ncc(C(=O)N5CCOCC5)n4c3)ccc2o1 | measured: Cough | advanced solid tumour patients | dose not given, all grades, all doses | patients with adverse event | 20% |
| N[C@@H]1c2ccccc2OC12CCN(c1cnc3c(N4CCCc5ncccc54)n[nH]c3n1)CC2 |  | advanced solid tumour patients | oral, 60 mg once daily | patients with fatal TEAE | 0% |
| O=C1Nc2cc3[nH]nc(-c4ccncc4)c3cc2CN1Cc1ccccc1 | CTCAE v4.03 | advanced solid tumour patients | intravenous, 7.2 mg/kg, schedules 1/2 | patients with fatigue | 20% |
| CC(=O)c1c(C)c2cnc(Nc3ccc(C4CCN(CCS(C)(=O)=O)CC4)cn3)nc2n(C2CCCC2)c1=O |  | HR+/HER2- advanced breast cancer patients | oral, 100 mg bid, grade 3/4, monotherapy arm | patients with any TEAE | 80% |
| COc1c(C)cnc(Cn2cc(C#CCCOP(=O)(O)O)c3c(Cl)nc(N)nc32)c1C |  | patients, advanced solid tumours | dose not given, all doses | patients with abnormal dreams | 17% |
| C[C@@H]1OC(=O)NN=C1c1ccc(-c2ccc(F)cc2)c(C(F)(F)F)c1 |  | patients, phase I trial | oral, dose not given, all arms, any grade TEAE | patients with muscle spasms | 40% |
| CCNCCCNC/C=C\CNCCCNCC |  | advanced refractory solid tumour patients | intravenous, dose not given, cycle 1 | patients with TEAEs | 100% |
| COc1cc2c(Oc3ccc4[nH]c(C)cc4c3F)ccnc2cc1OCC1(N)CC1 |  | paediatric refractory sarcoma patients | 8 mg/kg | patients with grade 3 ALT elevation | 0% |
| C=CCNc1c(O)cc2c(O)c1C[C@@H](C)C[C@H](OC)[C@H](O)[C@@H](C)/C=C(\C)[C@H](OC(N)=O)[C@@H](OC)/C=C\C=C(/C)C(=O)N2 |  | unresectable or metastatic STS, GIST, other | intravenous, 150 mg/m^2 | patients with sinus bradycardia | 0% |
| COc1ccc(-c2c(-c3ccc(C#N)c(F)c3)nc(N3CCC(N)CC3)n(C)c2=O)cc1F | measured: conjunctival hemorrhage | relapsed/refractory MZL patients | oral, 60 mg, dose expansion | patients with TRAE any grade | 0% |

For quick reference, copied from above:
| Structure (SMILES) | assay | system | setting | measurement | value |
| --- | --- | --- | --- | --- | --- |
| COc1c(C)cnc(Cn2cc(C#CCCOP(=O)(O)O)c3c(Cl)nc(N)nc32)c1C |  | patients, advanced solid tumours | dose not given, all doses | patients with abnormal dreams | 17% |
| COc1cc2c(Oc3ccc4[nH]c(C)cc4c3F)ccnc2cc1OCC1(N)CC1 |  | paediatric refractory sarcoma patients | 8 mg/kg | patients with grade 3 ALT elevation | 0% |
